Results collected from several papers.
Each numbered part is a random draw from the data of one study; scales do not carry over between parts. Positions count from the first letter of the parent shown.

Set 1 — target: CCNB3, cyclin fold, Cln2 fusion (human); method: yeast growth competition, sequencing; matrix: yeast; setting: weak parent motif; relative to: not given; reading: higher = stronger binding
Starting sequence: DBF4B docking peptide (human); LGYLYLLLTQSLW; partner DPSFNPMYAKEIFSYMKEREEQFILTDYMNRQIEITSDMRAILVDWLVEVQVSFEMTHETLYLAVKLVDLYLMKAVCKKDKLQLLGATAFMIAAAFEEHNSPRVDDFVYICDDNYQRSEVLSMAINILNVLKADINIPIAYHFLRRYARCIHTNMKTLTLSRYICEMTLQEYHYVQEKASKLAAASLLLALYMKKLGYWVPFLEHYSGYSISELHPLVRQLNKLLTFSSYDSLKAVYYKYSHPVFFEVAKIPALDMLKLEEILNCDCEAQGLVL
Variant | normalised enrichment score
LGYLALLLTQSLW [Y5A] | 0.309
LGYLYLLLTQSLA [W13A] | -0.233
LGYLYLLATQSLW [L8A] | 0.778
LGYLYLLLTQALW [S11A] | 0.312
AGYLYLLLTQSLW [L1A] | 1.92
LGYLYLLLAQSLW [T9A] | 0.406
LGYLYLLLTASLW [Q10A] | 0.56

Set 2 — method: protein-binding microarray; form: double-stranded DNA, one strand shown; matrix: in vitro; tested at: 250 nM; setting: 60-bp whole probe; added: salmon DNA 0.4 mg/ml; relative to: random background probes; reading: higher = stronger binding; all sequences stand within: GCCTAGCAC … GTCTTGATTCGCTTGACGCTGCTG
Target: Interferon regulatory factor 7, full length, phosphomimetic (IRF7, Homo sapiens, UniProt Q92985, residues 1-503, S101K/S471D/S472D/S475D/S476D/S477D/S483D/S484D/S487D)
Construct (chain): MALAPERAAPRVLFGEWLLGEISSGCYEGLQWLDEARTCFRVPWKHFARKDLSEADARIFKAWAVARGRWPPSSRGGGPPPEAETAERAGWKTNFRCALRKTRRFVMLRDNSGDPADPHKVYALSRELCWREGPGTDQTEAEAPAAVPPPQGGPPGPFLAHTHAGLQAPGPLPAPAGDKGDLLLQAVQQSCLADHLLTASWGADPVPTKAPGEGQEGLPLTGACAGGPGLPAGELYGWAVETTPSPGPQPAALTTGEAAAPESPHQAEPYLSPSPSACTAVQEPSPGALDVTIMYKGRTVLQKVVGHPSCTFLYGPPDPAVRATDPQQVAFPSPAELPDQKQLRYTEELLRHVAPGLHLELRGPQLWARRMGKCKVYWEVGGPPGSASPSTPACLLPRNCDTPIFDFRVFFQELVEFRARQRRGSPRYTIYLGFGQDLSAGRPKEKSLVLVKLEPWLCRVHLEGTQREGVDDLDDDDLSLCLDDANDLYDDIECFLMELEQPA
Strand | log fluorescence [z-score]
TTCGAATTCAGAATGGGAGAGTGCTAG | 0.0666
GGCCGTCTGAGCTCCGTAGCGTGCTAG | -0.964
TACGAACTGAGACTGGAGACGTGCTAG | -0.187
TTAGGTATCGGACTGGGTTTGTGCTAG | 0.343
TTAGATTTCAGTCACGATTAGTGCTAG | 0.706
ATTGTTTCCTCTTTCACTGCGTGCTAG | 3.48
GACGGACTGGGGTTTCGGGCCGTGCTA | -0.109
GACGGTTACCTTATCCTGACGTGCTAG | -0.17
GCCGGTTTCCTTCTCCTGACGTGCTAG | 3.24
TCAATTTTTTTTTTCTAACTGTGCTAG | 0.52
GACGGACTGGGGTATCGTGACGTGCTA | -0.697
GAATGTCTTCCCCTCTCATTGTGCTAG | 0.685
GACGGTCTCGGTCCCGGGACGTGCTAG | 0.502
CAATATATATATTATATATTTGTGCTA | 0.663
CCCTTAAAAGACGTGCCAATGTGCTAG | 0.426
TTAGGACTGCTACTGCTATAGTGCTAG | -0.406
GACGATTCGAGTTTCGAGACGTGCTAG | 4.1
TTAGGTCTCGGTATCGCTTAGTGCTAG | 2.65
TTAGGACTGGACGTTCGGTTAGTGCTA | -0.0246
GGCGATTTCAGTTTCGAGACGTGCTAG | 4.2
TTAGGTTTCCTTTCCCTTTTGTGCTAG | 5.04
GACGATCTCAGTCTCTAGACGTGCTAG | 0.00616
CTCTGTCTAAAATTGTTAAAGTGCTAG | -0.039
TTAGGACAGCTTTTCCTTTAGTGCTAG | 0.596
GACGATAACGGGTATCGAGACGTGCTA | -0.54

Set 3 — method: universal PBM; form: double-stranded DNA, one strand shown; matrix: in vitro; tested at: 600 nM; reading: higher = stronger binding
Target: Sal-like protein 4, full length isoform A (SALL4, Homo sapiens, UniProt Q9UJQ4, residues 1-1053)
UniProt Q9UJQ4, sequence (whole entry, looked up): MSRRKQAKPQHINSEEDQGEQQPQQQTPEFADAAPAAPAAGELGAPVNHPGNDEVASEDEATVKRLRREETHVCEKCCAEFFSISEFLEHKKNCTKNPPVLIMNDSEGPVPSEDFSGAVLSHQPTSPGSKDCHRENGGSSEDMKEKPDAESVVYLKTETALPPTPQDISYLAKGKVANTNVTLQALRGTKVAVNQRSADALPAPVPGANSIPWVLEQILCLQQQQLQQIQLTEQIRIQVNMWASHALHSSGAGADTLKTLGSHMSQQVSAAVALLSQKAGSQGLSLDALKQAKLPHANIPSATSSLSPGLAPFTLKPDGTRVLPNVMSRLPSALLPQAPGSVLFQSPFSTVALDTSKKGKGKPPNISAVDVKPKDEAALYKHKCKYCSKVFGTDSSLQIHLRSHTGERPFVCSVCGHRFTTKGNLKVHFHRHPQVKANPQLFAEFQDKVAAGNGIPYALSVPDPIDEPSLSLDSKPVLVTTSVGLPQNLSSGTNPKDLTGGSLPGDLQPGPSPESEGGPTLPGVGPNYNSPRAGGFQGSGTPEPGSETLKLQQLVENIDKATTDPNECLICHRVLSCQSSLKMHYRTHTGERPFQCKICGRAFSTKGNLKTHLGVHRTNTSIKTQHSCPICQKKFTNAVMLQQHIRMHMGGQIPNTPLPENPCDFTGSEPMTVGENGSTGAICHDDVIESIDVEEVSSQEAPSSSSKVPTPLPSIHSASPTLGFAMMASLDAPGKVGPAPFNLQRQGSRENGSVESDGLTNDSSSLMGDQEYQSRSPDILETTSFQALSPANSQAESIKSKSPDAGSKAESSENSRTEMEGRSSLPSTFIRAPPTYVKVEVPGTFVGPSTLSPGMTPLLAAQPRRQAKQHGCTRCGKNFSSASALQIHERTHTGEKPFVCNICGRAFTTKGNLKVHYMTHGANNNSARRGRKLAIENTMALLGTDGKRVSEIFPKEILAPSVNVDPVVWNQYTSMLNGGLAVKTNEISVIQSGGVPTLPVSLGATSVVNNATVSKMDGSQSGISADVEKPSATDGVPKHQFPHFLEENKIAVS
Setting: 8-mer, flanks averaged, mean of replicates
Strand | E-score
AAATGAAA | 0.324
ATCTTGCA | 0.247
ATCAGCCA | -0.2
ACATTCAC | 0.105
AAGTAATG | 0.184
CCTATGCG | -0.0167
ACAGCCGG | -0.25
ACCGAGGA | -0.182
CCTTGAAG | 0.0564
GCCGTGCC | -0.188
ATGGTACG | 0.0627
AAATGCAA | 0.25
ATGGCATG | 0.0427
CTTTCAAA | 0.292
AAACTCAT | 0.194
AATGGAAT | 0.216
ACCGCTGA | -0.0391
CACTCGTC | -0.0804
GCTCCAAC | -0.131
CAGAATCA | -0.0669
AAACAACT | 0.149
CACCTTGC | -0.161
GCGGACCA | -0.23
ATAGTCTC | 0.149
ACCCTATG | 0.0221

Set 4 — method: RNA Bind-n-Seq; form: RNA; matrix: in vitro; tested at: 365 nM; relative to: no-protein control; reading: higher = stronger binding
Target: RNA binding protein fox-1 homolog 2, RRM domain, GST-SBP tag (RBFOX2, Homo sapiens, UniProt O43251-10, residues 100-194)
Setting: natural RNA segment, single round, ends assumed
All sequences stand within: GGGAGUUCUACAGUCCGACGAUC … UGGAAUUCUCGGGUGCCAA
Residues (chain): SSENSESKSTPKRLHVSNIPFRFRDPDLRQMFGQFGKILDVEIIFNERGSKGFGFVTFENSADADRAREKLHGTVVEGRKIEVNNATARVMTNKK
Strand | RBNS enrichment (R)
GAGAUGCUACCAAGUCUUGGAUGUUAGGGCGAGACCCUGCAAGUUGAGUAUUAGAGAGCUUGUCUUUCAAGGCAGGUUCCUGGGGCUUCAGGGCUAGGAGGGAGGAGCCU | 0.736
GCUCAACGGUGUGCCAGCUUCUGGGUCAUUCUAUGGGCAAAGAUGCUGCCUUAGUUCAGGUUUGUCAGAAGCAGGGUCUGGAAUGGGGCUUCAGCGAGGGAGUCAGGGAA | 0.639
AAAUUCUUUUGGUAGAAAUCCCUGAAGAGGUGCACCCAUCACUCAGUGCCCAGGGUCCUUUUCUGGCGAGAUGAGGCCAUGCACCACUUGCUCAGCACAGAGGCCAGCUU | 0.258
GAAGCAGGAGUUCUCAGAGGAACACGUCCUUCCAUCCAGGAGAAAGUGACUUUCUGUCUGCGGCUGCUCCACAUCCCGGGCCUGCUUUUCAAGGGUAUCUGUUCUGAUAC | 0.277
UUACUUUUUUUAGAUCCCUGUCUCCAGAAUCUCCCCGAUGCUGUUUUCUACAUCACAGGUCUCUCCCAGGGCUCGUUUUCCAAUCUCCAUCACUAGUCCUUACAGAACAG | 0.486
UUACGUUACAUUGAAACCUGCUGCUGCUGUGACUGUGAGGAGGGUGGGAGUGUGGAUGGGGAGGAAGGUUCUAGGCUCUCUUAUUUUUCUCAUUUCCCAAUGCCUCUCUG | 0.664
GCCUCCCUAGUCUAUCUCAUUUCUCCUUCCCAGAAAGUCAGCGAGAUUCACCAUCACAGAACAGCAAGGGGCUUUAAGAUGGAUGUCUCAAUGGGGAGGGGCUGGAGACA | 0.561
UCACCCAUUGUGAGAGUCACUUGGUCAAAUUUAGUUAAUGAGUCCAUUUUGAUCAUAAUGCACUCACACUAGUGUGUUUGAAUACUGACUGUCUGUCUGUCCAGUAAGGA | 0.385
UAAGUUAAACAUAAGACACAGGGGCUGUUGCUUUUGAACAGAACCCUAUAUUACUCUCCUGGGAUCUGAGUUUCUGCAGGUCAUUUGUAUGUAGGACCAGGAGUAUCUCC | 0.277
CAGUGCUGGAGAGCGGAGGAUUGGGGGCGGGGAUUCAGACUUUCUGGGUUCACAUCUGUGUUUUGCAUGUCCAGCAGUGGGGCUCUGGACUCCCUAGCGCCCUGGUUGUG | 8
CUGGAGGAGACUCAGGAAGCAGAGGCGUCCCUGCCGCUGCCCUUGGCCCUGCAAGCACAUCAUGACCCUUUCUGGCAGCCUCUUGGUGCUCUGGGUAGUGAGGGAUGACC | 0.404
AAAGGGACCUAGUUUAGCCAUUGCCCUGGAGAUGAAAUUAAUGGAGGCUCAAGGAUAGAUGAGCUCUGAGUUUCUCAGUACUCCCUCAAGACUGGACAUCUUGGUCUUUU | 0.708

Set 5 — method: RNAcompete; form: RNA; matrix: in vitro; tested at: 20 nM; setting: 7-mer, probes averaged, single round; relative to: mean of 7-mers; reading: higher = stronger binding
Target: PABPC1L2, full length, GST fusion (mouse, UniProt A0ABA7IW68)
Residues (chain): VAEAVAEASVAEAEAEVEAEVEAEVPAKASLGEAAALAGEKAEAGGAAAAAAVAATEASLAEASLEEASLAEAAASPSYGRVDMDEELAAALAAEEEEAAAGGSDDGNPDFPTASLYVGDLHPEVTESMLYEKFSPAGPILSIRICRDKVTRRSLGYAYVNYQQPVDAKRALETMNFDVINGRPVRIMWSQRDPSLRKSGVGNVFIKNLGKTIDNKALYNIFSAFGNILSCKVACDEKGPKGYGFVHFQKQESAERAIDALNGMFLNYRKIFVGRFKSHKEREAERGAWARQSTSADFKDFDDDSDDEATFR
Strand | 7-mer Z-score
UGUUUCC | -0.463
GUAGUAU | -0.264
GAUGUCU | -0.213
CUGGGCC | -0.258
AUAGCUA | -0.153
GGUAGGA | 0.175
AAACCUG | 0.562
AAUGGUC | 0.0515
CCCUGAG | -0.311
CCAGUAC | -0.209
UCUGCGG | -0.142
CUCUCUG | -0.304
ACUUGGG | 0.305
UGUCCGU | -0.342
CUUUACA | -0.0609
UCUUGGU | -0.387
ACUCCAA | -0.0609
CGACGUA | -0.182
UCUUCCC | -0.467
GAUUAAC | -0.126
ACAAAGU | 0.979
UAAUCCA | -0.0536
AAAGCCG | 0.657
CCCCUUA | -0.469

Set 6 — method: protein binding microarray; form: double-stranded DNA, one strand shown; matrix: in vitro; tested at: not given; relative to: not given; reading: higher = stronger binding
Target: Histone acetyltransferase KAT6A, winged helix 1, GST fusion (KAT6A, Homo sapiens, UniProt Q92794, residues 1-85)
Setting: 8-mer, flanks averaged, mean of 2 arrays, mostly near background
Construct (chain): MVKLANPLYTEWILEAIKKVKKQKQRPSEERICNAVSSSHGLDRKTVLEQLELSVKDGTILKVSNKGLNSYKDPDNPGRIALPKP
Strand | E-score
CAGATCCA | -0.226
ATTACTAG | 0.046
GCCAATTA | -0.171
CGAATGCG | 0.306
ACGGTTCT | 0.0105
ACGGCCGG | 0.43
GCGGGAGC | 0.347
TATAGGAA | -0.0729
AATTCGAA | -0.201
TGGGACAA | -0.208
AAAGACCG | 0.197
GGAATAGA | -0.0852
ACCTTCCT | 0.00756
AGTAAAGG | -0.105
GAAGACCA | -0.121
ACGGAACG | 0.248

Excerpt of the above (set 3):
Strand | E-score
ATCAGCCA | -0.2
CTTTCAAA | 0.292
GCGGACCA | -0.23
ACCGCTGA | -0.0391
ACATTCAC | 0.105
ATGGTACG | 0.0627
CCTATGCG | -0.0167
CCTTGAAG | 0.0564
CACCTTGC | -0.161
AAACTCAT | 0.194
